{"data": "Assay results of several laboratories", "note": "A part holds a random share of what one study measured."}
{"data": "Series 1", "target": "Eukaryotic initiation factor 4A-I (EIF4A1, Homo sapiens, UniProt P60842, residues 1-406, full length assumed)", "method": "RNA Bind-n-Seq", "form": "RNA", "medium": "in vitro", "tested at": "15 pmol", "setting": "4-mer, random 30-nt RNA, single round", "together with": "DMSO vehicle, 2 mM AMP-PNP", "relative to": "input library", "reading": "higher = stronger binding", "UniProt P60842, sequence (whole entry, looked up)": "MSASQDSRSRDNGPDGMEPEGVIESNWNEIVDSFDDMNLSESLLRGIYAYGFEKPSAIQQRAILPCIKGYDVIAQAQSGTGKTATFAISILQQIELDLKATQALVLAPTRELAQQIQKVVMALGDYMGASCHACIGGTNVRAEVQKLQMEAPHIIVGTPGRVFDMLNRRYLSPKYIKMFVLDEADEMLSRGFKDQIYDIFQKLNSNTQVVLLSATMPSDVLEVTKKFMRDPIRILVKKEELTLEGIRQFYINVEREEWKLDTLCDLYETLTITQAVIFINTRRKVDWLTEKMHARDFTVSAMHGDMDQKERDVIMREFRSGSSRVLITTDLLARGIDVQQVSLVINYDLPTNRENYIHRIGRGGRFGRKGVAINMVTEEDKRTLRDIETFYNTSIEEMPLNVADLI"}
{"Oligonucleotide": "GCGC", "4-mer enrichment [fold]": 1.05}
{"Oligonucleotide": "GAAU", "4-mer enrichment [fold]": 0.948}
{"Oligonucleotide": "AAAG", "4-mer enrichment [fold]": 1.29}
{"Oligonucleotide": "CAAC", "4-mer enrichment [fold]": 1.5}
{"Oligonucleotide": "ACUG", "4-mer enrichment [fold]": 1.3}
{"Oligonucleotide": "UCUU", "4-mer enrichment [fold]": 0.876}
{"Oligonucleotide": "UAAA", "4-mer enrichment [fold]": 1.17}
{"Oligonucleotide": "GUUU", "4-mer enrichment [fold]": 0.871}
{"data": "Series 2", "target": "Protein max, full length (MAX, Homo sapiens, UniProt P61244-2, residues 1-151)", "method": "protein-binding microarray", "form": "double-stranded DNA, one strand shown", "medium": "in vitro", "tested at": "not given", "setting": "k-mer, scored over probes, only values ≥0.25", "reading": "higher = stronger binding"}
{"Oligonucleotide": "AGGGCATG", "E-score": 0.327}
{"Oligonucleotide": "AATACACG", "E-score": 0.339}
{"Oligonucleotide": "ATGTGATG", "E-score": 0.257}
{"Oligonucleotide": "GCTTAACA", "E-score": 0.271}
{"Oligonucleotide": "CTGTCCAC", "E-score": 0.262}
{"Oligonucleotide": "AAATCATG", "E-score": 0.293}
{"Oligonucleotide": "ACGTGTAC", "E-score": 0.399}
{"Oligonucleotide": "CACGCGTG", "E-score": 0.467}
{"data": "Series 3", "target": "RING finger protein unkempt homolog, zinc fingers 1-6, GST-SBP tag (UNK, Homo sapiens, UniProt Q9C0B0, residues 30-357)", "method": "RNA Bind-n-Seq", "form": "RNA", "medium": "in vitro", "tested at": "not given", "setting": "RNA with constant flanks, human-mouse chimeric sites, ends assumed", "relative to": "input RNA pool", "reading": "higher = stronger binding", "UniProt Q9C0B0, sequence (30-357, looked up)": "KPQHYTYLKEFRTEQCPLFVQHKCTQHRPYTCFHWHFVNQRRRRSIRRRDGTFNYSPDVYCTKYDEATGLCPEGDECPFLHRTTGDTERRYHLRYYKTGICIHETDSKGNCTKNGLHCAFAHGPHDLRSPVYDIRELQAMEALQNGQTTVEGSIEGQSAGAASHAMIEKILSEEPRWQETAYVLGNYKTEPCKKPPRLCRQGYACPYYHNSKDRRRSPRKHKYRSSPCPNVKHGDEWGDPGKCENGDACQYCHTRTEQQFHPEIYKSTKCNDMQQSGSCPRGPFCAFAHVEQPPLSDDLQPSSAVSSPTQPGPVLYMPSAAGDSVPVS"}
{"Oligonucleotide": "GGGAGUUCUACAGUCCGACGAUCGAAUCCUACUCAGGCGGAUUUUGCAACCUGAAUGCAACAGCAGCAGCAUCUUAGUCACAGUAGGGUAGUUUUGGGGCAAUAUUGCCAGGGUUUUAUUCACAUGCAGGUUUGGAAAAUGUACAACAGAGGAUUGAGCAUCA", "bound/input enrichment [ratio]": 1.01}
{"Oligonucleotide": "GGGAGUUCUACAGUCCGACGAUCAUUGUUGAAGCGAAUCCACUUUUAGAAGCAUUUGGAAAUGCGAAGACUGUUCGCAACAAUAAUAGCAGUCGAUUUGGGAAAUUUGUAGAAAUUCAUUUCAAUGAAAAGAGUUCGGUUGUUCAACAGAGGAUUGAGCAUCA", "bound/input enrichment [ratio]": 0.38}
{"Oligonucleotide": "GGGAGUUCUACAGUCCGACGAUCGGCUGCUGGUGACUGUCCUGGAGUGGCUGGAGUUCCCGCCGGAGCGCGCGCAGGUUAAUUUUAGAAAAUGCCAAGUAGGAAGUUUGUCGAUGGUGAAGUGGUCAGAGGCCGAUGGCCUGGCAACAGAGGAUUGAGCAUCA", "bound/input enrichment [ratio]": 2.84}
{"Oligonucleotide": "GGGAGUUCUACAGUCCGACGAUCGGCCUGGGACCGUCCUGGGCUAGUACAAAUAGCGGCAGUGGAGGCUCGAGAGGAAAGUUUGUUAGUGGAGGCAGUGGUAGAGGCCGUAUGUACGCUCCCUUUACUCGUAAAAAUCCUUCUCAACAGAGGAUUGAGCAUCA", "bound/input enrichment [ratio]": 0.166}
{"Oligonucleotide": "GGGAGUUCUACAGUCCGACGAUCGGCUGCUGGUGACUGUCCUGGAGUGGCCGUGUCACCGGCCGGAGCGCGCGCAGGUUAAUUUUAGAAAAUGCCAAGUAGGAAGUUUGUUGAGGGUGAAGUGGUCAGAGGCCGAUGGCCUGGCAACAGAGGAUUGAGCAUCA", "bound/input enrichment [ratio]": 1.46}
{"Oligonucleotide": "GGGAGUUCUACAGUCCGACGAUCAAAGUGAUAACCAUGUUUGUCCAACGACAGGUAUUUUCGGAGAGCAAAGAUGAGAUUGCGUUAGUCCUCUAUGGCACAGAUGGCACUGAUAAUGCCCUUUCUGGUGGGGACCAGUAUCAGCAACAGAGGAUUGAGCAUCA", "bound/input enrichment [ratio]": 0.224}
{"Oligonucleotide": "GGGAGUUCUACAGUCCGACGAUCUCCCUGUGCUUACUAAAAUGGCUUGUAAAGAAGUUUUUCCAAGCUGUAACCCAUGCUGUUAUUAUAGUUGCUGCAAAAUGUUCUUCCUGAUAUUGAUUUUAUUUGUUAACUGAAGGUCUCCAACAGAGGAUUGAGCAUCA", "bound/input enrichment [ratio]": 0.472}
{"Oligonucleotide": "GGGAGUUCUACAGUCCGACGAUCCAGCUGCAGACAGAGAAGGAUGAGAAGGAGCUGUAUAAGGUACAUUUGAAGAAUACAGAAAUAGAAAAUACGAAGCUUGUGUCAGAGAUACAGACUUUAAAAAAUUUAGAUGGAAACAAACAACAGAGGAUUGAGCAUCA", "bound/input enrichment [ratio]": 4.11}
{"data": "Other studies, line by line"}
{"SMILES": "CNS(=O)(=O)c1ccc(CCC(=O)N(Cc2ccc(F)cc2F)C2CCCC2)cc1", "species": "human", "medium": "microsomes or S9", "tested at": "2 µM", "time": "0.5 h", "measurement": "remaining compound", "result": "6.76%"}
{"note": "A few entries again (other studies, line by line):"}
{"SMILES": "CNS(=O)(=O)c1ccc(CCC(=O)N(Cc2ccc(F)cc2F)C2CCCC2)cc1", "species": "human", "medium": "microsomes or S9", "tested at": "2 µM", "time": "0.5 h", "measurement": "remaining compound", "result": "6.76%"}
